Measured values collected from several papers.
Each line is one published result; not all experiments were run side by side. ± gives the spread as reported.
CNR1: Cannabinoid receptor 1 (CNR1, Homo sapiens, UniProt P21554)
Chain of UniProt P21554 (whole entry, looked up): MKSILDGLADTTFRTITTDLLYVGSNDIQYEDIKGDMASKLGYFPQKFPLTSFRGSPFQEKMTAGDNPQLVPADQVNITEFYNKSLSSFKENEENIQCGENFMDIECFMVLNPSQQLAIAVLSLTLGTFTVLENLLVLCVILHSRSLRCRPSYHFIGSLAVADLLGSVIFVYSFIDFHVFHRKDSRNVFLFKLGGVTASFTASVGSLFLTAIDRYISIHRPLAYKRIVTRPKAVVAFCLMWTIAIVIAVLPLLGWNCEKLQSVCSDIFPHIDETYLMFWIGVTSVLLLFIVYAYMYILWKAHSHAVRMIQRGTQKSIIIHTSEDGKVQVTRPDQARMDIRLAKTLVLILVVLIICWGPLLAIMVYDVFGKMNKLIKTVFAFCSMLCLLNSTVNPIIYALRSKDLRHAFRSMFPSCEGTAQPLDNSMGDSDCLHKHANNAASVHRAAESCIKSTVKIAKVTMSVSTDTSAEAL
Gabrg2/Gabra3 with β3 subunit: Gabrg2/Gabra3, with β3 subunit (Rattus norvegicus, UniProt P18508+P20236)
Chain of UniProt P18508 (whole entry, looked up): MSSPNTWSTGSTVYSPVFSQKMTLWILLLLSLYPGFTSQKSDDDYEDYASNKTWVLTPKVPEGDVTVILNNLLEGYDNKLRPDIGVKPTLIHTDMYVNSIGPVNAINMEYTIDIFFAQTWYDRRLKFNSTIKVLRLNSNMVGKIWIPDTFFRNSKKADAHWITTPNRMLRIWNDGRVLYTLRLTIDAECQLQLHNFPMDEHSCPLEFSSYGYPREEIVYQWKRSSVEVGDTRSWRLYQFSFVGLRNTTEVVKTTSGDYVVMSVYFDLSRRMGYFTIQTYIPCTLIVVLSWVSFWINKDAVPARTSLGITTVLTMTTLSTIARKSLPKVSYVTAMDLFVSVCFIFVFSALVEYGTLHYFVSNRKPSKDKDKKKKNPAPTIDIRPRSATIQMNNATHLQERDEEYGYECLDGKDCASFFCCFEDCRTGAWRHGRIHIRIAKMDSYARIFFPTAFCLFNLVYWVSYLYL
Chain of UniProt P20236 (whole entry, looked up): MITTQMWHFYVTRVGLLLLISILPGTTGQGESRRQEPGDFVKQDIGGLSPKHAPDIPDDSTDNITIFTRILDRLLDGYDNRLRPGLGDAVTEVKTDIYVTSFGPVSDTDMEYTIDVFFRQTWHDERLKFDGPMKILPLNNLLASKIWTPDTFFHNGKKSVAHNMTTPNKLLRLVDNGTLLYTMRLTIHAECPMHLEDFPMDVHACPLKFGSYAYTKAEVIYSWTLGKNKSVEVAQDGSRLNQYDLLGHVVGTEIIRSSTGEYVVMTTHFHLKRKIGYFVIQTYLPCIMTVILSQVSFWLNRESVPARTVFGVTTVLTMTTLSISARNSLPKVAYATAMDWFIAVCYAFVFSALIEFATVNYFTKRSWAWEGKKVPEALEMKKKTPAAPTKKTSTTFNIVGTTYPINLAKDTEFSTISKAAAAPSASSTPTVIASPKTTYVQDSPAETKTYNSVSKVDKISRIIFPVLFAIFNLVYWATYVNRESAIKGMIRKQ
Chain of UniProt Q923Y9 (whole entry, unmodified, looked up): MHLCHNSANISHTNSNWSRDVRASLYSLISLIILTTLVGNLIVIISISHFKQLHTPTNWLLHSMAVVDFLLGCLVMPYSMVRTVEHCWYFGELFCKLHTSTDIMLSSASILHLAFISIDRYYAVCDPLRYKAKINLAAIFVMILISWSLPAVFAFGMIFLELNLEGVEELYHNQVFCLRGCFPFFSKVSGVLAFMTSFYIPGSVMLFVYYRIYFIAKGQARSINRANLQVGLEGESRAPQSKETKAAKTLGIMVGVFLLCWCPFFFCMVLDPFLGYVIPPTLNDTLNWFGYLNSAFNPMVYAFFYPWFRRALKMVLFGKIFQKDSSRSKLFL
Chain of UniProt P62813 (whole entry, looked up): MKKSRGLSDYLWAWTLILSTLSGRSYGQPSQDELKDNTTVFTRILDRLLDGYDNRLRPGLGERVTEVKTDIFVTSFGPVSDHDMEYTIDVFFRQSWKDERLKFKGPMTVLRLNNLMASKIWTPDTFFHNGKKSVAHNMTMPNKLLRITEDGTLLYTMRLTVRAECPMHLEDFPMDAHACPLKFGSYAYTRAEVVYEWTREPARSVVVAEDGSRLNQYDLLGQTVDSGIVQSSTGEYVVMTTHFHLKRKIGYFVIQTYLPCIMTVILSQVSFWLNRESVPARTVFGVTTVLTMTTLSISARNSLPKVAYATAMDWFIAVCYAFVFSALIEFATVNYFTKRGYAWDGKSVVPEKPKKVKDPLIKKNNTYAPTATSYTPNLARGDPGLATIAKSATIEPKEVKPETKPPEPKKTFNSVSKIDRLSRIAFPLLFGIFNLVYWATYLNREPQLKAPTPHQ
Chain of UniProt P28223 (whole entry, looked up): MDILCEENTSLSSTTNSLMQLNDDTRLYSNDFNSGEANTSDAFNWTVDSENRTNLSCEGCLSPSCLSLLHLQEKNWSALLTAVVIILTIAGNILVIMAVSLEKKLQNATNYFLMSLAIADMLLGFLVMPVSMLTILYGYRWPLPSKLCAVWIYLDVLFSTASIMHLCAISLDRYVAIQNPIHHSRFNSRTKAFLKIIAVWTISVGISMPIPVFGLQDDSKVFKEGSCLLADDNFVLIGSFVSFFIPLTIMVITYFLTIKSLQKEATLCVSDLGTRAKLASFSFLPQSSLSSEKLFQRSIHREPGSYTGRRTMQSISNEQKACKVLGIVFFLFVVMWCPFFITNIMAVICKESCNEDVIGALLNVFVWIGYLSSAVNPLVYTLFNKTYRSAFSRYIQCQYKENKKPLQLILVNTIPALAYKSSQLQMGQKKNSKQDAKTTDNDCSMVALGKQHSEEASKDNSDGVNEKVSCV

| SMILES | tested on | assay | test system | setting | scale | measurement | value |
| --- | --- | --- | --- | --- | --- | --- | --- |
| CN1CCCCC1Cn1cc(C(=O)c2cccc3ccccc23)c2ccccc21 (stereo not shown) | CNR1 | GIRK channel response, agonist | AtT20 expressing CB1 | – | reference: WIN 55212-2 10 µM | Emax | 78.3 ± 2.7% |
| CC(C)[C@H](NC(=O)c1nn(Cc2ccc(F)cc2)c2ccccc12)C(=O)O | CNR1 | calcium mobilization, agonist | CHO-K1 expressing Gαq16 | – | reference: CP55,940 maximum | Emax | 123 ± 7% |
| CN[C@@](C)(C[18F])C(=O)O | SK-OV-3 tumour model | – | host not given, heart | 1 h, tumour-bearing | – | tracer uptake | 2.6 %ID/g |
| C[C@H]1CNCCc2ccc(Cl)cc21 | HTR2A (Homo sapiens, UniProt P28223) | calcium signal, agonist, fluorescence | HEK293 | – | – | Emax | 67% |
| CNC(C)Cc1ccc2c(c1)OCO2 (racemic) | – | visual analog scale, measured: Loving | human | oral, 0.75 mg/kg, mean over session, unit not given | reference: pre-dose baseline | mood rating | 4.7 |
| COc1cccc2c1C(=O)c1c(O)c3c(c(O)c1C2=O)C[C@@](O)(C(=O)CO)C[C@@H]3O[C@H]1C[C@H](NC(=O)[C@@H]2CCCN2C(=O)CNC(=O)[C@H](CC(C)C)NC(=O)[C@H](C)NC(=O)CP(=O)(O)O)[C@H](O)[C@H](C)O1 | – | – | mouse, E0771 tumour-bearing, heart | intravenous, 92 µmol/kg | – | AUC | 3.7 µM·h |
| O=C(NCC1CCCCC1)c1nn(Cc2ccc(F)cc2)c2ccccc12 | CNR1 | calcium mobilization, agonist | CHO-K1 expressing Gαq16 | – | reference: CP55,940 maximum | Emax | 111 ± 2% |
| CN1CCN(C(=O)OC2c3nccnc3C(=O)N2c2ccc(Cl)cn2)CC1 (stereo not shown) | Gabrg2/Gabra1, with β3 subunit (Rattus norvegicus, UniProt P18508+P62813) | GABA-induced chloride current, two-electrode voltage clamp | Xenopus oocytes | together with: GABA at EC3 | – | Emax | 383 ± 36% |
| CC[C@H](C)[C@@H]1NC(=O)[C@H](CCCNC(=N)N)NC(=O)[C@H](CC(=O)O)NC(=O)[C@H](CC(C)C)NC(=O)[C@H](CCCCN)NC(=O)[C@H](CC(C)C)NC(=O)CNC(=O)[C@H](Cc2ccccc2)NC(=O)[C@@H](NC(=O)CNC(=O)[C@H](CCCCN)NC(=O)[C@H](CO)NC(=O)[C@H](CC(C)C)NC(=O)CNC(=O)[C@H](CCCCN)NC(=O)[C@H](CCCCN)NC(=O)[C@H](CC(N)=O)NC(=O)[C@H](C)NC(=O)CNC(=O)[C@H](CCCCN)NC(=O)[C@H](Cc2ccc(O)cc2)NC(=O)[C@H](CCCCN)NC(=O)[C@H](CCCNC(=N)N)NC(=O)[C@H](C)NC(=O)[C@H](CC(N)=O)NC(=O)[C@@H]2CCCN2C(=O)[C@H](Cc2c[nH]cn2)NC(=O)[C@H](CCC(=O)O)NC(=O)[C@H](CCC(N)=O)NC(=O)CNC(=O)[C@@H]2CCCN2)CSSC[C@@H](C(=O)O)NC(=O)CNC(=O)[C@H](CC(C)C)NC(=O)CNC(=O)[C@H](CO)NC(=O)[C@H](CCSC)NC(=O)[C@H](CO)NC(=O)CNC1=O | – | measured: urine cGMP/creatinine | human patients with achondroplasia, urine | 15 µg/kg, Emax model vs AUC(0-60 min), Hill 1 | – | Emax | 21900 pmol/mg creatinine |
| CC(C)(NC(=O)c1nn(Cc2ccc(F)cc2)c2ccccc12)C(=O)N1CCC[C@H]1C(N)=O | CNR1 | calcium mobilization, agonist | CHO-K1 expressing Gαq16 | – | reference: CP55,940 maximum | Emax | 92 ± 3% |
| CCCCCn1cc(C(=O)c2cccc3ccccc23)c2ccccc21 | CNR1 | GIRK channel response, agonist | AtT20 expressing CB1 | – | reference: WIN 55212-2 10 µM | Emax | 55.8 ± 6.1% |
| NC(=O)[C@@H](NC(=O)c1nn(Cc2ccc(F)cc2)c2ccccc12)c1ccccc1 | CNR1 | calcium mobilization, agonist | CHO-K1 expressing Gαq16 | – | reference: CP55,940 maximum | Emax | 104 ± 3% |
| CN1C(=O)CN=C(c2ccccc2)c2cc(Cl)ccc21 | Gabrg2/Gabra3 with β3 subunit | positive allosteric modulator, whole-cell patch clamp | HEK293 | α3β3γ2 subunits, together with: GABA at EC10 | – | Emax | 237% |
| N=C(N)NCCC[C@@H]1NC(=O)[C@H](CCCCNC(=O)CNC(=O)CNC(=O)CNC(=O)CC[C@H](NC(=O)CCOCCOCCOCCOCCNC(=O)c2ccc(NN)nc2)C(=O)NCC(=O)NCC(=O)NCC(=O)NCCCC[C@@H]2NC(=O)[C@@H](Cc3ccccc3)NC(=O)[C@H](CC(=O)O)NC(=O)CNC(=O)[C@H](CCCNC(=N)N)NC2=O)NC(=O)[C@@H](Cc2ccccc2)NC(=O)[C@H](CC(=O)O)NC(=O)CNC1=O [technetium-99m labelled] | – | γ-counting | female athymic nude mice, U-87 MG xenograft, brain | intravenous, 2 h | – | tissue uptake | 0.13 ± 0.02 %ID/g |
| O=C(NC1CCCCC1)c1nn(Cc2ccc(F)cc2)c2ccccc12 | CNR1 | calcium mobilization, agonist | CHO-K1 expressing Gαq16 | – | reference: CP55,940 maximum | Emax | 111 ± 3% |
| C[C@H]1CNCCc2ccc(Cl)cc21 | – | – | male Sprague-Dawley rat, plasma | subcutaneous, 3 mg/kg, single dose | – | Tmax | 25.2 min |
| CN1C(=O)CN=C(c2ccccc2)c2cc(Cl)ccc21 | Gabrg2/Gabra3 with β3 subunit | GABA-induced chloride current, two-electrode voltage clamp | Xenopus oocytes | together with: GABA at EC3 | – | Emax | 738 ± 36% |
| c1ccc(CCN2CCCCC2)cc1 | HTR1A (Homo sapiens, UniProt P08908) | binding | HA7 | together with: [3H]8-OH-DPAT 0.50 nM | – | Ki | 4.99 ± 0.33 µM |
| Cc1ccc(C(=O)c2cn(CCCCCCl)c3ccccc23)c2ccccc12 | CNR1 | GIRK channel response, agonist | AtT20 expressing CB1 | – | reference: WIN 55212-2 10 µM | Emax | 74 ± 3.4% |
| CC1=CC[C@@H]2[C@@H](C1)c1c(O)cc(CC#CCCCNS(C)(=O)=O)cc1OC2(C)C | CNR1 | forskolin-stimulated cAMP, agonist | CHO expressing human CB1 | together with: forskolin 10 µM | – | Emax | 37.4% |
| CC(C)[C@H](NC(=O)c1nn(Cc2ccc(F)cc2)c2ccccc12)C(N)=O | CNR1 | GIRK channel response, agonist | AtT20 expressing CB1 | – | reference: WIN 55212-2 10 µM | Emax | 89 ± 2.9% |
| NCCc1ccc(Oc2ccc(O)cc2)c(I)c1 | Trace amine-associated receptor 1 (Rattus norvegicus, UniProt Q923Y9, F153Y) | cAMP accumulation, agonist, cell-based | – | TM4 mutant | reference: 1 | Emax | 100% |

Repeated from above:
| SMILES | tested on | assay | test system | setting | scale | measurement | value |
| --- | --- | --- | --- | --- | --- | --- | --- |
| CN1CCCCC1Cn1cc(C(=O)c2cccc3ccccc23)c2ccccc21 (stereo not shown) | CNR1 | GIRK channel response, agonist | AtT20 expressing CB1 | – | reference: WIN 55212-2 10 µM | Emax | 78.3 ± 2.7% |
| CC(C)[C@H](NC(=O)c1nn(Cc2ccc(F)cc2)c2ccccc12)C(=O)O | CNR1 | calcium mobilization, agonist | CHO-K1 expressing Gαq16 | – | reference: CP55,940 maximum | Emax | 123 ± 7% |
